# Published values from different studies.
# Every numbered part comes from another study and shows a few of its results, in no order.

# Series 1 — technique: RNA Bind-n-Seq; molecule type: RNA; medium: in vitro; concentration: 200 nM; notes: whole 134-nt RNA, ends assumed; with: 150 mM KCl; reference: input library; reading: higher = stronger binding
# Target: Fragile X messenger ribonucleoprotein 1, C-terminal low-complexity region (Fmr1, Mus musculus, UniProt P35922)
Strand,log2 enrichment
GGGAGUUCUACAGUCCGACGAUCCAUGUUGAAAGACAUGCUUUUAUUUUUUUGUAAAACAAUAUAGGAGCUGUGUCUACUAUUAAAAGUGAAACAUUUUGGCAUGUUUGUUAAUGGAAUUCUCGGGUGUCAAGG,-1.68
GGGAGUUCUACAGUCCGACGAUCUCAAGUCCUGUGCUACACAUCGUAUGUACCGAAUCGGGAGGGAAAGGGAAAGGGAAAGUAUUAUGUUACGCCGUUCGGAUCUGCACUUCCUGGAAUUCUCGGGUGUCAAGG,0.82
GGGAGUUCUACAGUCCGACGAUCUAACUUUAGAGGAGGAUCUGAUGGAUAUGGCAGUGGACGUGGAUUUGGGGAUGGCUCUAAUGGGUAUGGAGGAGGACCUGGAGGUGGCAAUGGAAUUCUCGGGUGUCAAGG,0.268
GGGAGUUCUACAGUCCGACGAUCUCCUGUGCUACACAUCGUAUGUACCGAAUCGGGGAAAAAGGGGAAAAAAAGGGGAGGGGAAAGUAUUAUGUUACGCCGUUCGGAUCUGCAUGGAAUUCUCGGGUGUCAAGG,0.544
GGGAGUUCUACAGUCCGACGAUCGUCCUGUGCUACACAUCGUAUGUACCGAAUCAAAUUUUUAAAUUUAAACCCCCCCAAAAAAGUAUUAUGUUACGCCGUUCGGAUCUGCACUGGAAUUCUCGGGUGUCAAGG,0.201
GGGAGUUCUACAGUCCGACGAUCCACAGACAACACGCACCCACACAGACACAGAGGGGAGGGGUUGGGAUGGGGACAGGGUGCACAGCAGGGCGGGGUAGGACCCCAGCCCCUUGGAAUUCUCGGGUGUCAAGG,1.27
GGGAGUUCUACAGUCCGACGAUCAAGUCCUGUGCUACACAUCGUAUGUACCGAAUCGGGGAGGGGUUUGGGGAAAGGGGAAAGUAUUAUGUUACGCCGUUCGGAUCUGCACUUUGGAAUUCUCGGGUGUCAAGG,0.897
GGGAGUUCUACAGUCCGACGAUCUCAAGUCCUGUGCUACACAUCGUAUGUACCGAAUCGGGGAAGGGGAAGGAAGGGGAAAGUAUUAUGUUACGCCGUUCGGAUCUGCACUUCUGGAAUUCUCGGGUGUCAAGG,0.549
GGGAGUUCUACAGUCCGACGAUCAGUCCUGUGCUACACAUCGUAUGUACCGAAUCGGGAAAAAGGGUGGGAAAAAAAGGGAAAGUAUUAUGUUACGCCGUUCGGAUCUGCACUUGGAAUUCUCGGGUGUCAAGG,0.144
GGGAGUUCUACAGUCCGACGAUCAGUCCUGUGCUACACAUCGUAUGUACCGAAUCGGGGAAAAAGGAAAAAGGAAAAAGGGAAAGUAUUAUGUUACGCCGUUCGGAUCUGCACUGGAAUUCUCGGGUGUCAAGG,-0.403

# Series 2 — technique: competition protein-binding microarray; molecule type: double-stranded DNA, one strand shown; medium: in vitro; concentration: 2 µM; with: Cbf1 competitor, 0.05 µM; reading: higher = stronger binding
# Target: Phosphate system positive regulatory protein PHO4, full length, GST-tagged (PHO4, Saccharomyces cerevisiae, UniProt P07270, residues 1-312)
# Notes: whole 60-bp probe, lowest competitor level
# Residues (chain): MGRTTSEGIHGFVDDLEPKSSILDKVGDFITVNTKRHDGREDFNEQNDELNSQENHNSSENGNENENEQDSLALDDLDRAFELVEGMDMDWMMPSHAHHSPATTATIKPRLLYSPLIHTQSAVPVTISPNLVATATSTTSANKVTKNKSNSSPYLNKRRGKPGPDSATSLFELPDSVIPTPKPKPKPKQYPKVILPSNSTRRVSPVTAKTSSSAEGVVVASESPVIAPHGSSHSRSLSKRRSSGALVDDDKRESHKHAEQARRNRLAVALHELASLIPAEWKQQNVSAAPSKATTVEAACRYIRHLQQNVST
Strand,fluorescence intensity [a.u.]
CTTCTCTTTCCCTGGCACGTGCAATTTTACCTCTGAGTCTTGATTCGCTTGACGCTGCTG,19700
CATACCCAACCTTGCTACGTGGGTGAAGATATTTGTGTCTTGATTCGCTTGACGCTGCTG,7930
AAAGCGGTAATTTGCCATGTGGGTGCAGATATCTATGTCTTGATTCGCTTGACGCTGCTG,11500
GCGAAATTATAGGGTCAGGTGATATTTGCGATGTGAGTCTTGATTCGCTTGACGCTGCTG,3460
TAAAAAGGCATTGAACTCGTGGTGACGGGCATACCCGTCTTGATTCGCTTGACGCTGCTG,9620
CTTCTGTAAATTTGTTAGGTGGGTGGACGCGCCCCGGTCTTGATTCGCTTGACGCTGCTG,3980
AAATTACTAAGTTTTCACGTGAATTACCCCGTATGAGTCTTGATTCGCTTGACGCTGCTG,10100
CATACCCAACCTTGAGATGTGGGTGAAGATATTTGTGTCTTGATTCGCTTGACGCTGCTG,4050
AGCCCCGCGGGATCGCACGTATGAAGCCTGGATGAAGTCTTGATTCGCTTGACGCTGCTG,5330
CATACCCAACCTTGAAGGGTGGGTGAAGATATTTGTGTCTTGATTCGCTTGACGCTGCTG,3830
AAATTACTAAGTTTTCACGTGCTTTACCCCGTATGAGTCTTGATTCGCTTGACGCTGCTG,14500
CAAAGAAACCAAAGGGTCGTGCTTTCAAGAGATTATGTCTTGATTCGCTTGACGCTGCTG,9410
CAGCAGCCTTGCCATCACGCTTAGCTTGAATGATGTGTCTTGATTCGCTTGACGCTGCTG,5450
CTTCTGTAAATTTGTATGGTGGGTGGACGCGCCCCGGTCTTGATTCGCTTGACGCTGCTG,4200
CTAACGAAGGTTTTTCACGTGTCCTACAAGCCAAGTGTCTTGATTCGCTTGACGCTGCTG,12300
CTTTCCCGATCTTGTCCGGTGGGTGTAGCACATTTGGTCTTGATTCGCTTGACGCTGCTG,4570
ATTTTTATAATATCCAATAGAGTAGAGTTGTTACATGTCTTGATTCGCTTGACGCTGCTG,4140
CTTCTGTAAATTTGCGACGTGGGTGGACGCGCCCCGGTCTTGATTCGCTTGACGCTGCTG,6840
AACCATCCCAAACACAAAGCAATCTTTACTCTACTTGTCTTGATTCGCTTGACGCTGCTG,3490
TCCGTACTACTGGCGTACGTGCGATGAATTAATCGGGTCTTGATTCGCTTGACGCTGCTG,7800
TCAAACAAGATAGCGTTCGTGACAAAAGGGAGATGGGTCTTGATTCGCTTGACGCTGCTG,5180
CCGAAATTTGCTTCACACGTGTCTGTTGATAAGCAAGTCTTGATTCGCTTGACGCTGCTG,16900
AAAGCGGTAATTTTTCACGTGATGTCAAATATCTATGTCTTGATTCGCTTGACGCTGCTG,12300

# Series 3 — technique: universal PBM; molecule type: double-stranded DNA, one strand shown; medium: in vitro; concentration: not given; reading: higher = stronger binding
# Target: Sal-like protein 4, full length isoform B (SALL4, Homo sapiens, UniProt Q9UJQ4-2, residues 1-616)
# Notes: 8-mer, flanks averaged, mean of replicates
Strand,E-score
ACAGTGCC,-0.135
AATCTCCG,-0.191
CTGCTCTA,0.114
CCTGATGA,-0.0252
ACGGGTAA,-0.0255
ACATCTAT,0.257
ATAGCTCC,0.104
AAGGTTGC,-0.133
GTAGGCAC,-0.231
CTGCTTAA,-0.0261
CAAATGAG,0.109
ACACAGAG,-0.0414
CAATGAAG,-0.0514
CCCGCTTC,-0.253
CCAAGTTA,0.197
GCAATTAC,0.0792
AGGCCTCG,-0.348
AAGCAGAG,0.0221
AGCGGCGG,-0.332
CAGCAAGA,0.0324
GCAGCAGC,-0.204
GTAAATCA,0.243
AACGGTTA,0.122
TCGCTAAA,0.0734
ACACTATA,0.261

# Series 4 — technique: protein binding microarray; molecule type: double-stranded DNA, one strand shown; medium: in vitro; concentration: not given; reference: not given; reading: higher = stronger binding
# Target: Histone acetyltransferase KAT6A, winged helix 1, GST fusion (KAT6A, Homo sapiens, UniProt Q92794, residues 1-85)
# Notes: 8-mer, flanks averaged, mean of 2 arrays, mostly near background
# Target sequence (chain): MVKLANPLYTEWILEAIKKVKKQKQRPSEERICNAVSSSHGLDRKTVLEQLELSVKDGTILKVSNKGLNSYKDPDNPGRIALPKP
Strand,E-score
CTAGGGGC,-0.0743
CTTGGGAC,-0.222
CAGAATAA,-0.154
ACGGCCCA,0.259
CAATCGTG,-0.131
GGCGACCA,0.199
CGACCAAC,-0.0767
CGCGATCC,0.292
CATTTTCC,0.0113
AGTTAGTA,-0.0957
CCGAATAA,-0.107
CTCGAAAA,-0.224
GAGGTCCC,0.0202
AGATGACC,0.0212
CGTGCCTA,-0.0261
ATAATTTA,0.00903
ATTGTCTA,-0.0745
AGTTGGAG,-0.171
CACAAAGC,-0.0194
CAAATTAA,-0.114
CACGTGAA,-0.0152
CGCGTCTA,0.312
CAGATTAG,-0.163
AAACTCAC,-0.11
CAGGGTAG,-0.139
